Measured values from different studies.
Each line is one published result; not all experiments were run side by side. Values joined by “and” are separate records of one study, mostly repeats; a detail may differ. ± marks the error that the study gave.
Chain of UniProt P45880 (whole entry, looked up): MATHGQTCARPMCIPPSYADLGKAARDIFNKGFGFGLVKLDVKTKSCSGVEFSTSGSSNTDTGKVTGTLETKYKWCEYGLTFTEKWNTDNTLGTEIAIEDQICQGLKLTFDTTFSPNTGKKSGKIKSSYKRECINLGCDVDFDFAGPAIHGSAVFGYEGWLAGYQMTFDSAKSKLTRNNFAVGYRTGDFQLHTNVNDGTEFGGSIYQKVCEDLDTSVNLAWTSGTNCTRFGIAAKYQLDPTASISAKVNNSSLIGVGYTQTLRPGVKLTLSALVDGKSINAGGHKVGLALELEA
Chain of UniProt P32239 (whole entry, looked up): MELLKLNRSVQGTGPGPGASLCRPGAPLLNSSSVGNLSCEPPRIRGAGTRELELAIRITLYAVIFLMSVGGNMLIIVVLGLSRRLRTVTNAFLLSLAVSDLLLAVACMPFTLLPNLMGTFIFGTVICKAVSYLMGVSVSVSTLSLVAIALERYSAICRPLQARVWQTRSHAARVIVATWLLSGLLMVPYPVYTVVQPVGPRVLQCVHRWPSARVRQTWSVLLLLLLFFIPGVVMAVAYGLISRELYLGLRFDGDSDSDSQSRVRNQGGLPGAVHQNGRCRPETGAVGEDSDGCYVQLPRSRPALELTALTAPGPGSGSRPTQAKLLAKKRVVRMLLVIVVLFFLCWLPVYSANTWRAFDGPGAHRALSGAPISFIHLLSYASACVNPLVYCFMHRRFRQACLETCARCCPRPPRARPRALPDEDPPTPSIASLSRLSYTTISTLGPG
Chain of UniProt Q5VT25 (whole entry, looked up): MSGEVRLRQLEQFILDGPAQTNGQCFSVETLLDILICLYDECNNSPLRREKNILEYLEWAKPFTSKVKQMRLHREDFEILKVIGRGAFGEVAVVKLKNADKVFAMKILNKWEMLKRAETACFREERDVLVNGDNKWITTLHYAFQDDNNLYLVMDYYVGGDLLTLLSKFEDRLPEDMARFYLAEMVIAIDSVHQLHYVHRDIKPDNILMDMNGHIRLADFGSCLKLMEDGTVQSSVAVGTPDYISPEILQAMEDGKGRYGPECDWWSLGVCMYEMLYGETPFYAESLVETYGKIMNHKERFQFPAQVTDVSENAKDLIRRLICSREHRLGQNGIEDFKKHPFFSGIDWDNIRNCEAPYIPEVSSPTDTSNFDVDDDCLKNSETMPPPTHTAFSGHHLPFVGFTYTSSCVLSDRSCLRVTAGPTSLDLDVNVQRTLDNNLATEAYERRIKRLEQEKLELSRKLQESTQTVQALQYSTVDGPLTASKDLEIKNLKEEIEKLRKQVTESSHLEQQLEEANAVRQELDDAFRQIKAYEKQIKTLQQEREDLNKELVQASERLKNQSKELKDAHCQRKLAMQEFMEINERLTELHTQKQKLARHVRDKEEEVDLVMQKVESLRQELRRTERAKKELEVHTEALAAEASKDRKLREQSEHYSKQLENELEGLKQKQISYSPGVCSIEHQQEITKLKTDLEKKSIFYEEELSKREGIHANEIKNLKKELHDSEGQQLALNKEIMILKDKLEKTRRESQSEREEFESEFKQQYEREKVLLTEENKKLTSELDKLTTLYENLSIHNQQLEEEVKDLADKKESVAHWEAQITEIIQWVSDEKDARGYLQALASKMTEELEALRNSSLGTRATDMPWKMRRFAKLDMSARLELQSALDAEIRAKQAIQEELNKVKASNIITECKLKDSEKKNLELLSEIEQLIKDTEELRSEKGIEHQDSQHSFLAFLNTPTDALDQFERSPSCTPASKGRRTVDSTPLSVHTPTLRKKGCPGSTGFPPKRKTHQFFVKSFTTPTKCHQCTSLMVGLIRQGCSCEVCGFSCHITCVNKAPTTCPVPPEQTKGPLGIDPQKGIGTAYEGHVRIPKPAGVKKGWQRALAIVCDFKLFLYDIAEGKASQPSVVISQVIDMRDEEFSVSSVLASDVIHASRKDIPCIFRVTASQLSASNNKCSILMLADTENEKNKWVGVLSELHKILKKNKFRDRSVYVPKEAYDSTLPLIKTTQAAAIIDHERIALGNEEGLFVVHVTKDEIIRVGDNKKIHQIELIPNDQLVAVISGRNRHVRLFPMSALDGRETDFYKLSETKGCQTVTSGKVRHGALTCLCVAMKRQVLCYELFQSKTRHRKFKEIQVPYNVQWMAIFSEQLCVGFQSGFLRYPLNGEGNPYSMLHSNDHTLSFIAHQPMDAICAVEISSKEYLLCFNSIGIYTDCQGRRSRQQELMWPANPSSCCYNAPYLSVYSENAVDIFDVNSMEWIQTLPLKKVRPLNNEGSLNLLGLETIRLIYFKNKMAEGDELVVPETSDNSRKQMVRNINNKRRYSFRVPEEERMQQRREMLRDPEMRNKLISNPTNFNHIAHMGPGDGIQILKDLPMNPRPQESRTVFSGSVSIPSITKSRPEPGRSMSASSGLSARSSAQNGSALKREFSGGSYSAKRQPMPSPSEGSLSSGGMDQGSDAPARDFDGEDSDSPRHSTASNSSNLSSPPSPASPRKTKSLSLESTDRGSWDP

SMILES | tested on | test | test system | conditions | how to read | quantity | value
CC[C@H](C)[C@@H]1NC(=O)[C@@H]2CCCN2C(=O)[C@H](CC(C)C)NC(=O)[C@H](CC(C)C)NC(=O)CNC(=O)[C@@H](NC(=O)[C@@H](NC(=O)[C@H](CC(=O)O)NC(=O)CNC(=O)[C@@H](NC(=O)[C@H](C)NC(=O)CNC(=O)[C@H](CCCCN)NC(=O)[C@H](CC(C)C)NC(=O)[C@H](CC(C)C)NC(=O)[C@H](CCCCN)NC(=O)CNC(=O)[C@@H](NC(=O)[C@@H](N)CC(C)C)C(C)C)C(C)C)C(C)C)CSSC[C@@H](C(=O)O)NC1=O |  | RNA-seq, item: Tmem154 | mouse, traumatic brain injury model, frontal cortex and hippocampus | dose not given | reference: TBI alone | log2 fold change | -2.14
CO[C@H]1C[C@@H]2CC[C@@H](C)[C@@](O)(O2)C(=O)C(=O)N2CCCC[C@H]2C(=O)O[C@H]([C@H](C)C[C@@H]2CC[C@@H](OC(=O)NCCOCCOCCOCCOCCOCCOCCOCCOCCC(=O)N3CCc4cc(Cn5nc(-c6ccc7oc(N)nc7c6)c6c(N)ncnc65)ccc4C3)[C@H](OC)C2)C[C@@H](O)[C@H](C)/C=C(\C)[C@@H](O)[C@@H](OC)C(=O)[C@H](C)C[C@H](C)/C=C/C=C/C=C/1C |  |  | patients with advanced solid tumours | intravenous, 6 mg weekly, any grade |  | dyspnoea incidence | 41.7%
O=C(c1ccc(Cl)cc1)N1CCN2C(=O)N(OC(=O)N3CCOc4ccccc43)C(=O)C2C1 (stereo not drawn) | Kallikrein-6 (Homo sapiens, UniProt Q92876) | enzyme activity, inhibitor, MS-based ABPP | SW-620 in situ | 10 µM, 2 h, 37 °C | reference: compound over DMSO, lower = stronger inhibition | median ratio | 1.07
Clc1cc(-c2cc(Cl)c(Cl)c(Cl)c2)cc(Cl)c1Cl |  |  | fresh water | 20 °C, S100 sampler, 100 µm |  | log K(PDMS-water) | 6.35 ± 0.07
CCC(CC)(NC(=O)c1ccc(C2CC2)c(Cc2ccc(F)cc2)n1)C(=O)NCCOCCOCCNC(=O)c1ccc2c(c1)C1(OC2=O)c2ccc(N(C)C)cc2[Si](C)(C)c2cc(N(C)C)ccc21 |  |  | PBS | 100 nM, pH 7.4, 0.1% DMSO |  | fluorescence quantum yield | 30.3%
Clc1ccc(-c2ccc(Cl)c(Cl)c2)c(Cl)c1 |  |  | fresh water | 20 °C, S100 sampler, 100 µm |  | log K(PDMS-water) | 5.64 ± 0.04
CNc1cc(-c2ccnc(Nc3ccc(N4CCN(C)CC4)c(C(F)(F)F)c3)n2)ccn1 |  |  | Danio rerio embryos | 5 µM, 5 d |  | toxicity | 82 ± 19%
CC(C)C[C@H](NC(=O)[C@H](CCCCN)NC(=O)OCC1c2ccccc2-c2ccccc21)C(=O)N[C@H](C(=O)N[C@@H](Cc1ccccc1)C(=O)N[C@@H](Cc1ccccc1)C(=O)N[C@@H](CCCCN)C(=O)NCC(=O)N[C@@H](Cc1ccccc1)C(=O)N[C@@H](C)C(=O)N[C@@H](Cc1c[nH]c2ccccc12)C(=O)N[C@@H](CC(N)=O)C(=O)N[C@H](C(=O)N[C@H]1CSSC[C@@H](C(=O)N[C@@H](Cc2c[nH]cn2)C(=O)N[C@@H](CCCNC(=N)N)C(=O)N[C@@H](CCCNC(=N)N)C(=O)N[C@@H](C)C(=O)N[C@@H](CC(N)=O)C(N)=O)NC(=O)[C@H](C(C)C)NC(=O)[C@H](CCCNC(=N)N)NC(=O)[C@H](C(C)C)NC(=O)CNC(=O)[C@H](CC(N)=O)NC(=O)[C@H](CCCNC(=N)N)NC(=O)[C@H](Cc2ccc(O)cc2)NC(=O)[C@H](C(C)C)NC1=O)C(C)C)C(C)C |  |  | ICR mouse, blood | intramammary, 10 mg/kg, day 5, 3 d dosing |  | haematocrit | 39.7 ± 0.53%
COc1cccc(-c2n[nH]c(SCc3ccccn3)n2)c1OC | Salmonella typhimurium | Ames test, preincubation | TA100 | 0.25 mg/plate, with rat liver S9 |  | revertant colonies per plate | 141
CN[C@@H](C)C(=O)N[C@H]1CN(S(=O)(=O)c2cccc(S(=O)(=O)N3CC[C@H]4CC[C@@H](C(=O)NC(c5ccccc5)c5ccccc5)N4C(=O)[C@@H](NC(=O)[C@H](C)NC)C3)c2)CC[C@H]2CC[C@@H](C(=O)NC(c3ccccc3)c3ccccc3)N2C1=O |  |  | patients advanced solid tumours | dose not given, all grades all doses |  | any treatment-related adverse event | 21.4%
N.N.[Cl][Pt][Cl] |  |  | mouse xenograft model | dose not given, day 8 |  | body weight | 24 g and 21 g and 19 g and 20 g and 17 g
C[C@H]1CN(c2n[nH]c3nc(N[C@H]4CC[C@H](NS(=O)(=O)CCC(F)(F)F)CC4)ncc23)CCO1 | Non-selective voltage-gated ion channel VDAC2 (Homo sapiens, UniProt P45880) | Kinobeads competition, item: VDAC2 |  | 0.8 µM, unit not given | reference: vehicle | remaining binding | 1.14
N=C(N)NCCNC(=O)C1(Nc2ccccc2)CCN(Cc2ccccc2)CC1 |  |  | Sprague-Dawley rat, female, urine | oral, 50 mg/kg, time not given |  | unchanged urinary recovery | 0.6 ± 0.3%
CN1CC[C@@H](c2c(O)cc(O)c3c(=O)cc(-c4ccc(C(F)(F)F)cc4Cl)oc23)[C@@H]1CO |  | item: Lymphopenia | relapsed B-cell malignancies or AML | oral, 50 mg, grade 3-4, continuous dosing |  | patients with adverse event | 12.5%
C1=Cc2nc1cc1ccc([n-]1)c(-c1ccccc1)c1nc(cc3ccc([n-]3)c2-c2ccccc2)C=C1.CC(=O)[O-].[Mn+3] |  | LC-MS/MS | Sprague-Dawley rat, plasma | oral gavage, dose not given, 240 min, individual rat Rat2 |  | plasma concentration | 109 ng/mL
COc1cc(Nc2ncc(F)c(Nc3ccc4c(n3)NC(=O)C(C)(C)O4)n2)cc(OC)c1OC | CCKBR (Homo sapiens, UniProt P32239) |  |  |  |  | IC50 | > 10 µM
O=C(O)CCC(CP(=O)(O)O)C(=O)O (stereo not drawn) |  |  | rat, processed derivatized plasma | 0.3 µg/mL, 18 h, 10 °C, autosampler stability | reference: nominal concentration | relative error | 12.7%
COc1ccc(-c2c(-c3ccc(C#N)c(F)c3)nc(N3CCC(N)CC3)n(C)c2=O)cc1F |  | item: Thrombocytopenia | human patients | oral, dose not given, grade 3 to 4, dose escalation, NG |  | treatment-related adverse event incidence | 20%
CC[C@H](C)[C@H](NC(=O)[C@H](Cc1ccccc1)NC(=O)[C@H](CCC(=O)O)NC(=O)[C@H](CCCNC(=N)N)NC(=O)[C@H](C)NC(=O)[C@H](C)NC(=O)[C@H](CCC(N)=O)NC(=O)[C@H](CCC(=O)O)NC(=O)[C@H](CCC(=O)O)NC(=O)[C@H](CC(C)C)NC(=O)[C@H](Cc1ccc(O)cc1)NC(=O)[C@H](CO)NC(=O)[C@H](CO)NC(=O)[C@@H](NC(=O)[C@H](CC(=O)O)NC(=O)[C@H](CO)NC(=O)[C@@H](NC(=O)[C@H](Cc1ccccc1)NC(=O)[C@@H](NC(=O)CNC(=O)[C@H](CCC(=O)O)NC(=O)[C@H](C)NC(=O)CCc1c[nH]cn1)[C@@H](C)O)[C@@H](C)O)C(C)C)C(=O)N[C@@H](C)C(=O)N[C@@H](Cc1c[nH]c2ccccc12)C(=O)N[C@@H](CC(C)C)C(=O)N[C@H](C(=O)N[C@@H](CCCNC(=N)N)C(=O)NCC(=O)N[C@@H](CCCNC(=N)N)C(=O)N[C@@H](CCCCNC(=O)COCCOCCNC(=O)COCCOCCNC(=O)CC[C@H](NC(=O)CCCCCCCCCCCCCCCCC(=O)O)C(=O)O)C(=O)NCC(=O)NCC(=O)N[C@@H](CO)C(=O)N[C@@H](CCCCNc1c(NCCCCCN(O)C(=O)CCC(=O)NCCCCCN(O)C(=O)CCC(=O)NCCCCCN(O)C(C)=O)c(=O)c1=O)C(=O)O)C(C)C [zirconium-89 labelled] |  |  | rat, duodenum | iv, 3 nmol/kg, 4 h, ex vivo |  | tissue uptake | 0.29 %ID/g
COc1ccc(N2C(=O)N(c3c(C)cccc3Cl)Cc3cnc(Nc4ccc(C5CCN(C)CC5)cc4OC)nc32)nc1 | CDC42BPA (Homo sapiens, UniProt Q5VT25) | kinase activity, inhibitor |  | 0.5 µM, kinase MRCK-ALPHA |  | inhibition | 5%
COc1cc2c(Oc3ccc4[nH]c(C)cc4c3F)ccnc2cc1OCC1(N)CC1 |  |  | paediatric recurrent refractory sarcoma | 10 mg |  | grade 3 ALT elevation | 0%
CC(=O)N1CCC(C(=O)N2CCN3C(=O)c4cc(-c5ccccc5)ccc4NC(=O)C3C2)CC1 (stereo not drawn) | Salmonella typhimurium |  | TA1535 | 50 µg/plate |  | revertants per plate | 12.5
O=S(=O)(Nc1ccccc1)c1ccc(NC(=S)Nc2ccccc2)cc1 |  |  | female mouse, blood | oral, 80 mg/kg daily, 14 days |  | haematocrit | 42%
O=C(Nc1ccccc1)C1CCN(C(=O)Oc2cccnc2)CC1 |  | item: abdominal distension | healthy female humans | concentration not given, safety set, all doses pooled |  | TEAE incidence | 4%

Some of these lines once more:
SMILES | tested on | test | test system | conditions | how to read | quantity | value
Clc1ccc(-c2ccc(Cl)c(Cl)c2)c(Cl)c1 |  |  | fresh water | 20 °C, S100 sampler, 100 µm |  | log K(PDMS-water) | 5.64 ± 0.04
Clc1cc(-c2cc(Cl)c(Cl)c(Cl)c2)cc(Cl)c1Cl |  |  | fresh water | 20 °C, S100 sampler, 100 µm |  | log K(PDMS-water) | 6.35 ± 0.07
COc1cc2c(Oc3ccc4[nH]c(C)cc4c3F)ccnc2cc1OCC1(N)CC1 |  |  | paediatric recurrent refractory sarcoma | 10 mg |  | grade 3 ALT elevation | 0%
